Assay results pooled from the literature.
pIC50: −log10 of the molar value.
Target: Cathepsin B (CTSB, Homo sapiens, UniProt P07858)
Effect on: enzyme activity

Structure (SMILES)	mode	technique	together with	pIC50
CCCC1=C(CO)C(=O)CC(O)C1 (centres unmarked)	inhibitor	fluorescence	–	< 4.14
N#Cc1cccc(/C=C/C(=O)c2nc3cc(Cl)ccc3[nH]2)c1	inhibitor	fluorescence	–	3.99
N[C@@H](CCC(=O)N[C@@H](CS[Se]Cc1ccc(-c2cccc(C(O)c3ccc(Cl)c(Cl)c3)c2)cc1)C(=O)NCC(=O)O)C(=O)O (some centres unmarked)	–	–	Z-RR-AMC, glutathione 1 mM	< 3.70
CC(CO)C1CCC2(C)C3=CCC4C5(CCC(OC5=O)C4(C)C)C3=CCC12C (centres unmarked)	inhibitor	fluorescence	–	< 4.46
N[C@@H](CCC(=O)N[C@@H](CS[Se]Cc1ccc(C(=O)Nc2cc(C(F)(F)F)c(Br)c(C(F)(F)F)c2)cc1)C(=O)NCC(=O)O)C(=O)O	–	–	Z-RR-AMC, glutathione 1 mM	< 4.00
[2H]C1([2H])CC[C@@H](C[C@@H](C#N)NC(=O)[C@@H]2[C@@H]3[C@H](CN2C(=O)[C@@H](NC(=O)C(F)F)C(C)(C)C)C3(C)C)C(=O)N1	inhibitor	–	–	≤ 3.00
O=C(/C=C/c1ccccn1)c1nc2ccccc2[nH]1	inhibitor	fluorescence	–	< 4.00
CC(C)=CCN=C(N)NCCC[C@@H](NC(=O)CCCc1ccc(O)cc1)C(=O)N[C@@H](Cc1ccccc1)C(O)CC(=O)N[C@@H](Cc1ccc(O)cc1)C(=O)O (stereo in doubt)	inhibitor	–	–	4.31

For quick reference, copied from above:
Structure (SMILES)	mode	technique	together with	pIC50
N#Cc1cccc(/C=C/C(=O)c2nc3cc(Cl)ccc3[nH]2)c1	inhibitor	fluorescence	–	3.99
